Published values gathered from unrelated publications.
Lines come from different studies, so protocols differ. Values joined by “and” are separate records of one study, mostly repeats; a detail may differ. ± marks the error that the study gave.
UniProt P10632, sequence (whole entry, looked up): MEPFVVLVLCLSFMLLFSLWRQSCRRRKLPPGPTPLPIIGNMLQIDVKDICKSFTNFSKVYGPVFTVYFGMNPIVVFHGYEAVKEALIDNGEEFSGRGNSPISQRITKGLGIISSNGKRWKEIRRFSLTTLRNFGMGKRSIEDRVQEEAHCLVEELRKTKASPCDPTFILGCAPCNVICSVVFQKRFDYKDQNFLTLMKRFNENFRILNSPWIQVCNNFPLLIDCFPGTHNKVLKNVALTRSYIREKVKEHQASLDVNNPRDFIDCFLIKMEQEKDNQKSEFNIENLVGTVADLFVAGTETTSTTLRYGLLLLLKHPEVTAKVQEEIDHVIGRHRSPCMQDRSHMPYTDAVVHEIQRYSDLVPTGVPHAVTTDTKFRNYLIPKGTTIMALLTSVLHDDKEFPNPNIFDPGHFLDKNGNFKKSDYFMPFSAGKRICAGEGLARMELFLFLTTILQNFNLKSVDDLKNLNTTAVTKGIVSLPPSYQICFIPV

SMILES	tested on	test	test system	conditions	how to read	measurement	value
CN1CCCNC(=O)c2cccc(c2)C(=O)NCCCN(C)CCCNc2cccc3c2C(=O)c2cccc(c2C3=O)NCCC1	SAS	cell growth or viability, CCK-8		1 nM, 48 h		viability	100%
CC(C)Cc1ccc(C(C)C(=O)N[C@@H](CCCCNC(=O)CCOCCOCCOCCOCCOCCOCCNC(=O)CN2CCN(CC(=O)[O-])CCN(CC(=O)[O-])CCN(CC(=O)[O-])CC2)C(=O)Nc2cccc3c(C(=O)NCC(=O)N4CC(F)(F)C[C@H]4C#N)ccnc23)cc1.[177Lu+3] (some centres unmarked)	U-87 MG tumour model		host not given, muscle	48 h, tumour-bearing		tracer uptake	0.32 %ID/g
CC(C)OCCOCc1ccc(OCC(O)CN(N=O)C(C)C)cc1 (centres unmarked)	Salmonella typhimurium	Ames test	TA1537	500 µg/plate, 30 % hamster S9	relative to: solvent control	revertant fold increase	0.8 fold
CC(C)NCC(SS(=O)(=O)O)c1ccccc1 (centres unmarked)	Schistosoma mansoni	perfusion day 35	infected Swiss Webster mice	100 mg/kg		body weight	26.7 g and 28.8 g and 25 g
Cc1cc(=O)c2c(O)c3c(O[C@@H]4O[C@H](CO)[C@@H](O)[C@H](O)[C@H]4O)cc(O)cc3cc2o1	HK-2 co-cultured with HepaRG	MTT		266.67 µM, 24 h	relative to: untreated control	cell viability	74.3 ± 11.9%
CNC(=O)C1CCCN(C(=O)C2CC3CCC2N3C(=O)[C@@H]2C[C@@H](O)CN2C(=O)NCc2cccc(Cl)c2F)C1 (mixture of isomers)	Cytochrome P450 2C8 (CYP2C8, Homo sapiens, UniProt P10632)	preincubation without NADPH	human	0.206 µM	relative to: negative control	remaining activity	94.1% and 68.5% and 88.1%
CCN(CC)CC#CCNc1ccnc2cc(Cl)ccc12	Salmonella typhimurium	mini-Ames test	TA100	125.0 µg/well, with rat liver S9		revertants	25 revertants/well and 22 revertants/well
O=C1C2CC3CC1CC(C(=O)N1CCN(c4ccc([N+](=O)[O-])c5ncccc45)CC1)(C3)C2	Salmonella typhimurium	Ames test	TA98	0.02 µg/well, with S9	relative to: vehicle	revertant fold increase	1.3
O=C1NC2(CC2)COc2ncc(F)cc2[C@H]2COCCN2c2ccn3ncc1c3n2	CHL cells	chromosomal aberration test		5 µg/mL, 24 h, without S9 mix		cells with chromosome gaps	0%
O=S(=O)(O)SC(CNC1CCCCC1)c1ccccc1 (centres unmarked)	Schistosoma mansoni		infected Swiss Webster mice	oral, 150 mg/kg daily x4, dosed from day 21, perfusion day 36		body weight	29.8 g and 31.8 g and 30.9 g
C=C(NC(=O)c1csc(-c2nc3c(cc2O)-c2nc(cs2)C(=O)NC(C(C)O)C(=O)NC(=C(C)OC)c2nc(cs2)C(=O)NC2c4nc(cs4)C(=O)NC(COC(=O)c4c5c6c(cccc6n4O)COC(=O)C(OC4CC(C)(O)C(N(C)C)C(C)O4)C2OC5)c2nc-3cs2)n1)C(N)=O (centres unmarked)			ICR mice, Streptococcus pneumoniae ATCC 49169 infected, immunocompromised, blood	intravenous, 4 mg/kg/day three times daily		Tmax	4.8 min
